Experimental data collected from several papers.
Each line is one published result; not all experiments were run side by side. Values joined by “and” are separate records of one study, mostly repeats; a detail may differ. ± gives the spread as reported.

For `C[C@H]1C[C@H]2CSC(N)=N[C@@]2(c2nc(NC(=O)c3ccc(OC(F)F)cn3)cs2)CO1`, “percent change from baseline” read -45.4% (measured: Aβx-40; healthy adults, plasma; 160 mg single dose, 4 h post-dose; reference: placebo).
`Cc1cc(F)cc2c(CCC(=O)N[C@@H]3C(=O)NC[C@H]3O)c(-c3ccc(F)cc3)[nH]c12` — result for “urine albumin/creatinine ratio”: 219 µg/mg and 78.8 µg/mg and 56.4 µg/mg and 1070 µg/mg and 30.7 µg/mg (APOL1 G2 mice, IFNγ-induced; 30 mg/kg twice daily, day 14).
`COc1c(O)c(C)cc2c1C(=O)c1c(ccc(O)c1O)C2=O` has a viability of 73.7 ± 12.1% (HK-2 co-cultured with HepaRG; MTT; 133.33 µM, 48 h; reference: untreated control).
Under “log2 fold change”, `c1ccc(-c2n[nH]cc2-c2ccnc3ccccc23)nc1` is recorded as 1.4 (kinase binding, competitor, MIB/MS competition, measured: NPR1; Candida albicans cell lysate; 10 µM; reference: DMSO).
With `Cc1cc([C@H]2C[C@H]3[C@@H](CF)SC(N)=N[C@@]3(c3ccc(F)cc3F)CO2)on1` the Aβ42 level was 0.41 ng/g (measured: Aβx-42; Mus musculus wild-type, brain; subcutaneous, 100 mg/kg, 3 h).
The sarcomere length of `O=C(O)CNC(=O)Cc1ccccc1` is reported as 1.62 µm (ventricular cardiomyocytes, C57BL/6 mouse; dose not given, 0.52 s).
The cell viability of `CC(=O)c1c(C)cc2cc(O)cc(O[C@@H]3O[C@H](CO)[C@@H](O)[C@H](O)[C@H]3O)c2c1O` is reported as 98.3 ± 11.8% (HK-2 co-cultured with HepaRG; MTT; 266.67 µM, 48 h; reference: untreated control).
For `COc1nnc2ccc(N3CCC(c4ccc(OCCN5CCN(C)C(=O)[C@H]5C)cc4)CC3)nn12`, “time above HEXIM1 threshold” read 4.32 h (human patients; 40 mg once daily, 2-fold above baseline).
For `N#Cc1ccn2c(-c3ccncc3)c(-c3ccc(F)cc3)nc2c1`, “log2 fold change” read 0.0194 (kinase binding, competitor, MIB/MS competition, measured: IKS1; Candida albicans cell lysate; 1 µM; reference: DMSO).
The tissue uptake of `CC(C)C[C@H](NC(=O)C[C@H](O)[C@H](CC(C)C)NC(=O)[C@H](Cc1c[nH]cn1)NC(=O)CNC(=O)[C@@H](NC(=O)[C@H](C)NC(=O)[C@H](Cc1c[nH]c2ccccc12)NC(=O)[C@H](CCC(N)=O)NC(=O)[C@@H](Cc1ccccc1)NC(=O)COCCOCCNC(=O)CCC(C(=O)O)N1CCN(CC(=O)O)CCN(CC(=O)O)CCN(CC(=O)O)CC1)C(C)C)C(N)=O` (stereo partly drawn) [lutetium-177 labelled] is reported as 0.4 ± 0.1 %ID/g (BALB/c nu/nu mice, blood; intravenous, 250 pmol, 1 h, with: PA 300 µg).
Under “log2 fold change”, `Cn1cc(-c2ccc(-c3cncc(Cl)c3N3CCC4(CCNC4=O)CC3)cc2)cn1` is recorded as 2.28 (COLO 205; gene expression, microarray, measured: CLU mRNA; concentration not given, 6 h; reference: untreated cells).
`NCC(=O)Nc1cncc(-c2nn3c(=O)cc(N4CCNCC4)nc3s2)c1` has a median inhibition of 3.8% (ADP-induced platelet aggregation, light transmission aggregometry; human, stable CAD on aspirin, platelets ex vivo; subcutaneous, 0.075 mg/kg, 240 min post-dose, with: ADP 20 µM).
For `CCN1CCN(Cc2ccc(Nc3ncc(F)c(-c4cc(F)c5nc6n(c5c4)[C@H](C)CCC6)n3)nc2)CC1`, “median progression-free survival” read 7.3 months (human advanced solid tumours; 300 mg, phase Ia monotherapy RECIST 1.1).
For `C[C@@H]1CCC[C@H](n2cnc(-c3cc(Cl)ccc3-n3cc(Cl)nn3)cc2=O)c2cc(ccn2)-c2c(cnn2C(F)F)NC1=O`, “concentration for aPTT prolongation” read 500 nM (cynomolgus monkey plasma; IC1.5× aPTT, Actin FS reagent).
Under “EEG Alpha1-power Pz-O1”, `OC(CCN1CCCCC1)(c1ccccc1)C1CC2C=CC1C2` (stereo not drawn) is recorded as 11 µV² (resting-state EEG; healthy elderly humans; oral, 4 mg, eyes closed, LS mean).
`NC(=O)c1cnc2[nH]ccc2c1N[C@@H]1[C@@H]2CC3C[C@H]1C[C@@](O)(C3)C2`: “change from baseline” -0.13% (flow cytometry, measured: CD8+ effector T cells; Japanese healthy subjects, peripheral blood; oral, 30 mg twice daily, day 7).
For `CC(C)NCC(O)c1ccc(O)c(O)c1` (stereo not drawn), the sarcomere length was 1.72 µm (ventricular cardiomyocytes, C57BL/6 mouse; dose not given, 0.108 s).
The inhibition of `Cn1cc(Nc2nc(N)nc(-c3cccc(-n4ccc5cc(C6CC6)cc(F)c5c4=O)c3CO)n2)cn1` is reported as 70.9% (CD63 upregulation, anti-IgE-induced; human, multiple ascending dose, whole blood basophils ex vivo; 150 mg twice daily, day 14, 1 h).

Some of these lines once more:
The inhibition of `Cn1cc(Nc2nc(N)nc(-c3cccc(-n4ccc5cc(C6CC6)cc(F)c5c4=O)c3CO)n2)cn1` is reported as 70.9% (CD63 upregulation, anti-IgE-induced; human, multiple ascending dose, whole blood basophils ex vivo; 150 mg twice daily, day 14, 1 h).
For `CCN1CCN(Cc2ccc(Nc3ncc(F)c(-c4cc(F)c5nc6n(c5c4)[C@H](C)CCC6)n3)nc2)CC1`, “median progression-free survival” read 7.3 months (human advanced solid tumours; 300 mg, phase Ia monotherapy RECIST 1.1).
